Experimental data gathered from unrelated publications.
Numbered parts are unrelated; each lists some results of a single study.

Sample 1 — technique: protein-binding microarray; molecule type: double-stranded DNA, one strand shown; matrix: in vitro; tested at: 940 nM top; notes: 60-bp whole probe; together with: salmon DNA 0.4 mg/ml; relative to: random background probes; direction: higher = stronger binding; constant ends, left off below: GCCTAGCAC … GTCTTGATTCGCTTGACGCTGCTG
Target: Interferon regulatory factor 5, full length, phosphomimetic (IRF5, Homo sapiens, UniProt Q13568-2, residues 1-514, S451D/S453D/S456D/S462D)
Sequence | fitted relative affinity
GACAATATCAGACTGGAGACGTGCTAG | 0.00474 z-score
CTAGATTCCAGTTTCGATTAGTGCTAG | 8.93 z-score
GGCGATATCGGGTATCGAGACGTGCTA | 0.811 z-score
GATGGTTTCGGTATCGGGACGTGCTAG | 14.7 z-score
TTAGGTCTCGGGTTTCGGTTAGTGCTA | 6.6 z-score
GACGATTCCAGGTTCGAGACGTGCTAG | 0.148 z-score
TTAGGACTGCTTTTTCTTTAGTGCTAG | 0.189 z-score
GGCGGTTTCGGGTTTCGGGACGTGCTA | 9.71 z-score
GACGATATCGGGACAGGAGACGTGCTA | -0.323 z-score

Sample 2 — technique: RNA Bind-n-Seq; molecule type: RNA; matrix: in vitro; tested at: not given; relative to: input RNA pool; direction: higher = stronger binding
Target: RING finger protein unkempt homolog, zinc fingers 1-6, GST-SBP tag (UNK, Homo sapiens, UniProt Q9C0B0, residues 30-357)
Sequence of UniProt Q9C0B0 (30-357, looked up): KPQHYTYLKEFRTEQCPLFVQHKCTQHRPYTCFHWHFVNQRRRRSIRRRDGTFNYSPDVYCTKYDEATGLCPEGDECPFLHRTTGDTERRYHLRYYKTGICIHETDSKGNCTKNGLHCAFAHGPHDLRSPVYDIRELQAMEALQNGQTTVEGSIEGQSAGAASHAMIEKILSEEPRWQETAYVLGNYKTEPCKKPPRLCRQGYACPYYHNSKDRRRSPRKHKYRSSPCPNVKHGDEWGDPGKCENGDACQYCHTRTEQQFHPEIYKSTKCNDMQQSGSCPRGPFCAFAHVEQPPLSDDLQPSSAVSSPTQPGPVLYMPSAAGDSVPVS
Notes: RNA with constant flanks, human-mouse chimeric sites, ends assumed
Sequence | bound/input enrichment [ratio]
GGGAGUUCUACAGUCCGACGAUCGGAAGCACAAUGAUGGAGAUUGAUGGUGACAAAGGCAAGCAGGGCGGGCCCACCUACUACAUAGACACUAAUGCUCUCCGCGUGCCCAGGGAGAACAUGGAGGCCAUCUCACCACUCAAGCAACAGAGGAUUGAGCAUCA | 0.528
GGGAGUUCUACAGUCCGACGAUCACAGUUAUAUUGUUGAGUUUCAUUUUCAUAUAUUCUUGUAGUGUCUGCUUGCCUGUGUCUUUUAGUAAAAUAAAAUAAGCCUUUGAAAAUAUUUUAGAUUUAACAUUAACAUUUUCUAAACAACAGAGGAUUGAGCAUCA | 22.3
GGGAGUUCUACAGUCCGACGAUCCUUAAUGAUAUUUUGAGUGAAUAAAUGAAGCUAAAAUGUCUGCUUUUGGUACAACACGCAUUAAUAAAAGGUUAAGUUUUGUUUUCCACUGAAGUACUAUUUAACAUCUCAGAAAAAAACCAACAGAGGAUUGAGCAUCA | 0.2
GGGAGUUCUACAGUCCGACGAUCAGAUUCCCCCUCCUGAGACCUCCUCCGAAGUUGGAGUCUCUUACAGAUGCCUCAUCCCCUGUUAGCGUUUUGGUCUGGACCACCCAGCCUUGGACAAUUCCCGCCAAUGAAGCUGUUUGCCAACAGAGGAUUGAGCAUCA | 0.711
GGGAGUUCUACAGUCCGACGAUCUCUUUAAAAAAAAAAUUACAGGAAAAUACAGUGCUUUCCCUCCCAUAGAUCCACGUUCAAGCUCAAAGAGCAAAGGCUUUGCACGGAGCUCAAACAUCUGAUGAAGAUUUUUGAGACAGACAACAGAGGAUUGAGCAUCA | 0.898
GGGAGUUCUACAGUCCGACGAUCAUAAAGGCUAUGUUGAGUGGUCCAGGUCAGUUUGCUGAGAAUGAAACCAAUGAGGUCAAUUUUAGAGAGAUCCCCUCACAUGUGCUAUCAAAAGUGUGCAUGUAUUUUACCUACAAGGUCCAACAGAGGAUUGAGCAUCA | 0.169
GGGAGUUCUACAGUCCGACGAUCGAGUCGAGCAAACUUGAAACAAUUCGUUAUCUUGCAGCCUCAGUGUUUUUACUUGCCGCGAUAGCAUAUUGGGAUUUUAGGUUCUGGAAGGAGAACUGACGAUGAUGCUGCCGCUGCUGCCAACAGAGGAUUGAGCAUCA | 0.185
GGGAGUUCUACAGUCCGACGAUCUUACCCGAGAACGAGGAUGAGCUGGAGAGCACCAACAGGCGCUACACCAAGAGGGACUGUAGCACUUUCCUCAGAACUAGUGAGACGGGCAUCGUGGAUCAGGUUAUGGUCACUCUCAACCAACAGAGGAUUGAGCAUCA | 0.258

Sample 3 — technique: Sort-seq; measured: YFP reporter; matrix: E. coli; notes: PhoQ-PhoP variant library; together with: 10 µM Mg2+; relative to: high Mg2+ state; direction: higher = stronger signaling
Substance: PhoQ, residues 284 288 289 292 302 303 WVSSAF
target | fold induction
PhoP, residues 12 14 15 18 19 TQCLL (Escherichia coli, UniProt P23836) | 1.33
PhoP, residues 12 14 15 18 19 VHTVL (Escherichia coli, UniProt P23836) | 10.5
PhoP, residues 12 14 15 18 19 ICWRQ (Escherichia coli, UniProt P23836) | 2.21

Sample 4 — technique: protein binding microarray; molecule type: double-stranded DNA, one strand shown; matrix: in vitro; tested at: not given; relative to: not given; direction: higher = stronger binding
Target: Histone acetyltransferase KAT6A, winged helix 2, GST fusion (KAT6A, Homo sapiens, UniProt Q92794, residues 85-181)
Notes: 8-mer, flanks averaged, mean of 2 arrays, mostly near background
Residues (chain): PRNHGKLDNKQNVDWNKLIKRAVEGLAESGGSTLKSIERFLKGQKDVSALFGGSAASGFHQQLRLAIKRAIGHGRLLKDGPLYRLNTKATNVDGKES
Sequence | E-score
ATCAACGA | 0.136
AATGGGTA | 0.0395
CGGGCTAC | 0.015
ATTGGGCA | 0.096
AGTGCTAA | -0.00268
AGCGGGTA | 0.129
GAGTTCTA | -0.00536
CATAAAGC | -0.00288
AGCACACG | 0.0168
CCCGGTAG | 0.0197
GCAGCTAA | 0.198
CCCCGAAA | 0.0961

A few entries again (sample 1):
Sequence | fitted relative affinity
GACGATATCGGGACAGGAGACGTGCTA | -0.323 z-score
CTAGATTCCAGTTTCGATTAGTGCTAG | 8.93 z-score
GATGGTTTCGGTATCGGGACGTGCTAG | 14.7 z-score
